Measurements of several laboratories.
Each line is one published result; not all experiments were run side by side. ± gives the spread as reported.
Sequence of UniProt Q14676 (whole entry, looked up): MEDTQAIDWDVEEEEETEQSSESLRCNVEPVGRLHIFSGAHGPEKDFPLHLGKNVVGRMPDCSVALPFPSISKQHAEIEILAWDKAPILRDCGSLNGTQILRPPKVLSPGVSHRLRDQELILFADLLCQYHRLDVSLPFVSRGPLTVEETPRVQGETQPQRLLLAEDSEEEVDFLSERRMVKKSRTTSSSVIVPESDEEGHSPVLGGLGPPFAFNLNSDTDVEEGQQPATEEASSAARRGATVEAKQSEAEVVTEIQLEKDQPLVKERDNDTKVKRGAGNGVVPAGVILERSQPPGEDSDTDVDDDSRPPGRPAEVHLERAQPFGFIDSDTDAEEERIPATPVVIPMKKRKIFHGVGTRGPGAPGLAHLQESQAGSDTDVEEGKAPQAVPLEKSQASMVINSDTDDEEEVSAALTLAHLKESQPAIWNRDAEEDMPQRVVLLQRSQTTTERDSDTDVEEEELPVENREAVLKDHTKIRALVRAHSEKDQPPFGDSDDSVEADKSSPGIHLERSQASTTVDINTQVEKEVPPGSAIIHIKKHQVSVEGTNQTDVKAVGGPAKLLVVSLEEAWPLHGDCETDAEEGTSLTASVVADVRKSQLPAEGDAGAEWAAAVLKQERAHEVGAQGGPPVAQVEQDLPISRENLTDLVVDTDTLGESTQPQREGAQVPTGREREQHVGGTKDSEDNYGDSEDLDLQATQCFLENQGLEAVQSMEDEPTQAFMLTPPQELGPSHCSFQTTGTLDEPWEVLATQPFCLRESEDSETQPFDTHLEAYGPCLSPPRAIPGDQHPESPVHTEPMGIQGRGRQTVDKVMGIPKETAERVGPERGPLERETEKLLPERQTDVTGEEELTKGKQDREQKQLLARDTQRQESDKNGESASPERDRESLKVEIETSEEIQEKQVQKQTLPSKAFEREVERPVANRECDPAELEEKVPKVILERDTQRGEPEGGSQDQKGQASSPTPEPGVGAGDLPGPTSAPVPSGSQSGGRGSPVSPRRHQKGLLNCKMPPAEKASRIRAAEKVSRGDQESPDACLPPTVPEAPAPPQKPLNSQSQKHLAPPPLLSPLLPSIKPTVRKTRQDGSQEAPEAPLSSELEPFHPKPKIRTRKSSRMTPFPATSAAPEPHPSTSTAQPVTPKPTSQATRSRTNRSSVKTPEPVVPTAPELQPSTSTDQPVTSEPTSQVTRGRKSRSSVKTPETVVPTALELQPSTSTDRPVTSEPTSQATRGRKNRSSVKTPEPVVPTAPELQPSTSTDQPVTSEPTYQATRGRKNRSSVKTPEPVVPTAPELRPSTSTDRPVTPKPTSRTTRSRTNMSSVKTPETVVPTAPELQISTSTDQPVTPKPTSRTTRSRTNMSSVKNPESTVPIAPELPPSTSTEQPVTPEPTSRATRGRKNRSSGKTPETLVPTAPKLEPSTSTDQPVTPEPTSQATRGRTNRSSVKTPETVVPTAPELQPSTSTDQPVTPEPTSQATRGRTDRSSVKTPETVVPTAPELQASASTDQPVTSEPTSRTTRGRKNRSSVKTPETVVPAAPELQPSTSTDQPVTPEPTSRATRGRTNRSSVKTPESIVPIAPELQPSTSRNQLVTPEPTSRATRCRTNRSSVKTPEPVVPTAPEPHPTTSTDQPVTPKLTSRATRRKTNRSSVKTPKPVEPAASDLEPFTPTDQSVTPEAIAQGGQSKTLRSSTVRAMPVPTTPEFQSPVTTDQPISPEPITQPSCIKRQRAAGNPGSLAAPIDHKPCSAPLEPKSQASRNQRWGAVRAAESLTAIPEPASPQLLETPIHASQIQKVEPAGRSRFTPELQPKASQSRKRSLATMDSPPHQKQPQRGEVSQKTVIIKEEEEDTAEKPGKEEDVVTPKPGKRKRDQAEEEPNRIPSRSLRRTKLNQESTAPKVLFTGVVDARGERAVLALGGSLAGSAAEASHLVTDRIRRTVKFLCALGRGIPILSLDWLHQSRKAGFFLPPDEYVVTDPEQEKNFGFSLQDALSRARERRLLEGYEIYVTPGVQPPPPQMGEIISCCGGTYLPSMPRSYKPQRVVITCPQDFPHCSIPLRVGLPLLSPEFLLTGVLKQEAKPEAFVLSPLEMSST
Sequence of UniProt A6TAP2 (whole entry, looked up): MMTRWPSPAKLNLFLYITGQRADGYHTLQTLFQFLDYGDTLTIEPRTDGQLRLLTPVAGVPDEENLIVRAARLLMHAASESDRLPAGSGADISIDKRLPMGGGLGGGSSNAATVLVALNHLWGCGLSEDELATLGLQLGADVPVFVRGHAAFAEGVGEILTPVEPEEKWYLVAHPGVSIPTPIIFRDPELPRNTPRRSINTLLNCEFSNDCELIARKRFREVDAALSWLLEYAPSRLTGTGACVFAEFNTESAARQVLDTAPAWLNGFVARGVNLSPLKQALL
Sequence of UniProt Q92769 (whole entry, looked up): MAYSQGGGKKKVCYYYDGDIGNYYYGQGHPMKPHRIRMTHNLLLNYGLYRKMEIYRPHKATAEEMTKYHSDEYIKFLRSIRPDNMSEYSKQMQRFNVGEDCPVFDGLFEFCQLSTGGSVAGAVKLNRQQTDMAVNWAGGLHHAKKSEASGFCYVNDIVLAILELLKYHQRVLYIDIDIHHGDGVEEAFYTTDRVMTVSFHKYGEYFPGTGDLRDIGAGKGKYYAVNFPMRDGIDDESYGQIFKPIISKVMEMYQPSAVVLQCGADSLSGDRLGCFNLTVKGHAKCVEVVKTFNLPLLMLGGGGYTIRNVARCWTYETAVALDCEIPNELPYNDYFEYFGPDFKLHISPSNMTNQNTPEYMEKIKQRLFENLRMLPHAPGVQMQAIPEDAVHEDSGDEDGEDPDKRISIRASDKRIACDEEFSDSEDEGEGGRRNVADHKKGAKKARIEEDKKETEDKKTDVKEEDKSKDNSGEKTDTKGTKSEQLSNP
Sequence of UniProt P10415 (whole entry, looked up): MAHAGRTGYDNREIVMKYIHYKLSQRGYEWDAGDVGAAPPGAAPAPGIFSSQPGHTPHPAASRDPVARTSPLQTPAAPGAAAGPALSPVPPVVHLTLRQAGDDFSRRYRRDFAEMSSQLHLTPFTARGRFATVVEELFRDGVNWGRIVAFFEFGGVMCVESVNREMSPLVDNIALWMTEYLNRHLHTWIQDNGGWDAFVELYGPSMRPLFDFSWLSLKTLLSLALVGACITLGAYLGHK
Sequence of UniProt Q8WUI4 (whole entry, looked up): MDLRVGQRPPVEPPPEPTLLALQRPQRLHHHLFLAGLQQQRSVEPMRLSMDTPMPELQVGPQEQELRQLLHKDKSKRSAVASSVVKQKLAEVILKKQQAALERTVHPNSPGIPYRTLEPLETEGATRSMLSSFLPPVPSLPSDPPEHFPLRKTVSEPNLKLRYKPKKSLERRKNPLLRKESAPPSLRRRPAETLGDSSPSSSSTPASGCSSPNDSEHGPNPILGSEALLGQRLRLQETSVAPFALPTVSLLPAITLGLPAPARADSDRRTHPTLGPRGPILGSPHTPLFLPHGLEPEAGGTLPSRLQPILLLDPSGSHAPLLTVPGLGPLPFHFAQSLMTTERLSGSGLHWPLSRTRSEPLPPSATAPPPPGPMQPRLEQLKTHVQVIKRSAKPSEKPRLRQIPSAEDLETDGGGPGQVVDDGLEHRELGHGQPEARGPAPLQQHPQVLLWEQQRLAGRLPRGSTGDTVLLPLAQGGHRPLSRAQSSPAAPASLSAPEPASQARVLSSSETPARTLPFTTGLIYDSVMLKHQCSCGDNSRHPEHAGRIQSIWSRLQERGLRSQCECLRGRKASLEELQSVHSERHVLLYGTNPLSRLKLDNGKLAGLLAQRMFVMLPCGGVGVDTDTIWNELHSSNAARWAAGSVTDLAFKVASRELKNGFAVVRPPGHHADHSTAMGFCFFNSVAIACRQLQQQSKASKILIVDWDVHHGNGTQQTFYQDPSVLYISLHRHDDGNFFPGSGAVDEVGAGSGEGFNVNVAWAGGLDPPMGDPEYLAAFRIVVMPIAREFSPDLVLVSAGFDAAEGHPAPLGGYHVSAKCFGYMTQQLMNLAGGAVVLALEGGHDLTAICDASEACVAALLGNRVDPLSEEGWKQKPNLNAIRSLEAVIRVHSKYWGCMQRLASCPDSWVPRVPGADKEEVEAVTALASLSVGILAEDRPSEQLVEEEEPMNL
Sequence of UniProt C7FF04 (whole entry, looked up): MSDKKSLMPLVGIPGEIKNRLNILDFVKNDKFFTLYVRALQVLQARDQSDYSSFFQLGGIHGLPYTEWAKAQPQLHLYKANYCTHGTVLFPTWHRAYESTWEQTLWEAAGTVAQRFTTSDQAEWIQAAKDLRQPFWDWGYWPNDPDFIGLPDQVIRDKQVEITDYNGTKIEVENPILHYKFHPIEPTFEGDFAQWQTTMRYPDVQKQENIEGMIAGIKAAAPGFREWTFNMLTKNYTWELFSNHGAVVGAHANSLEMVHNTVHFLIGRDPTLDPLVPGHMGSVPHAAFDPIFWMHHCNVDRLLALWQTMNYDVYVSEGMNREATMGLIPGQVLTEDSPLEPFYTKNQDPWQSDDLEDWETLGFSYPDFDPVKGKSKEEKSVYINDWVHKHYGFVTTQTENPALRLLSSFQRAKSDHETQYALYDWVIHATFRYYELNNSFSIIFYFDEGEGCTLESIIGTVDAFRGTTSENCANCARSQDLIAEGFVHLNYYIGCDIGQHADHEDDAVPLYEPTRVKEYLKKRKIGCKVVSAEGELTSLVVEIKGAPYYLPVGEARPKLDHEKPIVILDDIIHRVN

With `CC(=O)N[C@@H](CCCCN)C(=O)N[C@@H](CCCCN)C(=O)N[C@@H](C)C(=O)N[C@H](C(=O)N[C@@H](CCC(N)=O)C(=O)N[C@@H](C)C(=O)N[C@@H](CO)C(=O)N[C@@H](CCC(N)=O)C(=O)N[C@@H](CCC(=O)O)C(=O)N[C@@H](Cc1ccc(O)cc1)C(=O)O)[C@@H](C)O` the IC50 was > 300 µM (Mediator of DNA damage checkpoint protein 1 (Homo sapiens, UniProt Q14676); photo-cross-linking, competitor, photo-cross-linking competition; together with: photo-cross-linking probe peptide).
With `Cc1ccc(C(C)C)cc1.[Cl][Ru]([Cl])[P](CP(c1ccccc1)c1ccccc1)(c1ccccc1)c1ccccc1` the IC50 was 143 µM (Cathepsin B (CTSB, Homo sapiens, UniProt P07858); enzyme activity, inhibitor, fluorescence).
For `CC[C@H](C)[C@H](NC(=O)[C@@H]1CSCC(=O)NCCCC[C@H](NC(=O)[C@H](Cc2ccc(O)cc2)NC(=O)CNC(C)=O)C(=O)N[C@@H](CO)C(=O)N[C@@H](CCCNC(=N)N)C(=O)N[C@@H](CO)C(=O)N[C@@H](Cc2ccc(O)cc2)C(=O)N2CCC[C@H]2C(=O)N2CCC[C@H]2C(=O)N[C@@H](C(C)C)C(=O)N1)C(=O)N1CCC[C@H]1C(=O)N[C@@H](CC(=O)O)C(N)=O`, the IC50 was 18.5 µM (Mannan-binding lectin serine protease 2 (Homo sapiens, UniProt O00187); C3 deposition, inhibitor, ELISA; 100-fold diluted human serum; 30 min preincubation).
`CC(C)=CCCC1(C)C=Cc2c(ccc3cc(-c4cc(O)cc(O)c4CC=C(C)C)oc23)O1` (stereo not shown) gave an IC50 of < 1 µM (Beta-secretase 1 (BACE1, Homo sapiens, UniProt P56817); enzyme activity, inhibitor, FRET).
`C[C@@H](NC(=O)[C@@H](N)Cc1ccc(O)cc1)C(=O)NCC(=O)N[C@@H](Cc1ccc(F)cc1)C(=O)N1CCN(C(=O)[C@H](Cc2ccc(F)cc2)NC(=O)CNC(=O)[C@@H](C)NC(=O)[C@@H](N)Cc2ccc(O)cc2)CC1` has an IC50 of 0.0027 ± 0.0017 µM (delta opioid receptor, mouse; vas deferens contraction, agonist; mouse vas deferens).
The IC50 of `Cc1cc2c(C(=O)Cc3ccccc3)c(O)c(O)cc2c(O)c1-c1c(C)cc2c(C(=O)Cc3ccccc3)c(O)c(O)cc2c1O` is reported as 0.36 µM (BCL2 (Homo sapiens, UniProt P10415); ligand displacement, FP).
For `O=C(Nc1ccccc1)c1ccccc1O`, the IC50 was > 10 µM (HDAC7 (Homo sapiens, UniProt Q8WUI4); enzyme activity, inhibitor, fluorescence).
The IC50 of `O=C(CS)NCCCCCNC(=O)c1ccccc1` is reported as 18.8 µM (HDAC2 (Homo sapiens, UniProt Q92769); enzyme activity, inhibitor).
`CC[C@H](C)[C@@H]1NC(=O)[C@H](Cc2ccccc2)NC(=O)[C@H](CC(N)=O)NC(=O)[C@@H](NC(=O)[C@@H](NC(=O)[C@H](CO)NC(=O)[C@@H](N)Cc2ccc(O)cc2)[C@@H](C)O)CSC(=O)[C@H](CCSC)NC1=O` has an IC50 of 0.0028 µM (Accessory gene regulator protein C (Staphylococcus aureus, UniProt Q309Z2)).
`CCCCCCCCCCCCCCCc1ccc(C(Br)P(=O)(O)O)cc1` (racemic) has an IC50 of 10.1 µM (Autotaxin (ENPP2, Homo sapiens, UniProt Q13822); enzyme activity, inhibitor; together with: FS-3 1 µM).
For `N=C(N)NCCC[C@H](NC(=O)[C@@H](N)CS)C(=O)N[C@@H](CC(N)=O)C(=O)N[C@@H](CC(N)=O)C(=O)O`, the IC50 was 87.2 µM (PPO3 (Agaricus bisporus, UniProt C7FF04); enzyme activity, inhibitor).
`O=C(O)c1cscn1` has an IC50 of 296 ± 13.8 µM (4-diphosphocytidyl-2-C-methyl-D-erythritol kinase (ispE, Klebsiella pneumoniae subsp. pneumoniae, UniProt A6TAP2); enzyme activity, PK/LDH coupled spectrophotometric).
The IC50 of `CCOC(=O)C(C)(COP(=O)(OC)OCCCCCCNC(=O)c1cc2ccccc2oc1=O)C(=O)CSC(C)=O` (stereo not shown) is reported as 4.87 ± 0.03 µM (Retinal rod rhodopsin-sensitive cGMP 3',5'-cyclic phosphodiesterase subunit delta, with farnesylated K-Ras (PDE6D, Homo sapiens, UniProt O43924)).
